Measurements pooled from the literature.
Each line is one published result; not all experiments were run side by side. ± marks the error that the study gave.
Organism: Zika virus

NCC(=O)NCC(=O)N1Cc2cc(Cl)ccc2CC1c1ccccc1 (stereo not drawn) — EC50 (viral replication; Vero 76, Cal PL; 72 h): > 50 µM
N#Cc1c(Nc2ccc(F)cc2)n[nH]c1NS(=O)(=O)c1ccc2ccccc2c1 — EC50 (viral replication; Vero 76, MR766): > 2.5 µM
Nc1ncnc2c1ncn2[C@@H]1O[C@@H]2COP(=O)(O)O[C@H]3[C@@H](O)[C@H](n4cnc5c(=O)[nH]cnc54)O[C@@H]3COP(=O)(O)O[C@H]2[C@H]1O — fold enrichment (upregulated Reactome pathway, RNA sequencing, refers to: Interferon gamma signaling (R-HSA-877300); HFF-1; relative to: ZIKV-infected untreated): 10.9
CC(=O)c1cc(O)c2ccccc2c1O — EC50 (viral replication): 0.9 µM
C#C[C@@]1(O)[C@H](O)[C@@H](CO)O[C@H]1n1ccc2c(N)ncnc21 — EC50 (viral replication; Huh-7.5.1, nanoluciferase reporter; 48 h): 0.494 µM
NC(=O)c1ncn([C@@H]2O[C@H](CO)[C@@H](O)[C@H]2O)n1 — inhibition (viral replication, CCK-8; Vero C1008; 10 µM, 96 h): 37.1 ± 8.76%
O=c1c(O)c(-c2ccc(O)c(O)c2)oc2cc(O)cc(O)c12 — viral load (viral replication, plaque; MR766, culture supernatant; 500 µM, 48 h p.i.): decreased
NC(=O)c1nc(F)c[nH]c1=O — EC50 (viral replication; BHK-21, ZIKV; 72 h): 39 µM
N#C[C@@]1(n2ccc(N)nc2=O)O[C@H](CO)[C@@H](O)[C@H]1O — EC50 (viral replication, cell-based): > 20 µM

Repeated from above:
N#Cc1c(Nc2ccc(F)cc2)n[nH]c1NS(=O)(=O)c1ccc2ccccc2c1 — EC50 (viral replication; Vero 76, MR766): > 2.5 µM
